Experimental data gathered from unrelated publications.
Each numbered part is a random draw from the data of one study; scales do not carry over between parts.

Study 1 — method: protein-binding microarray; molecule type: double-stranded DNA, one strand shown; matrix: in vitro; tested at: not given; reading: higher = stronger binding; quantity: E-score
Target: Transcriptional repressor CTCF (CTCF, Homo sapiens, UniProt P49711, residues 1-727, full length assumed)
Setting: k-mer, scored over probes, only values ≥0.25
Construct (chain): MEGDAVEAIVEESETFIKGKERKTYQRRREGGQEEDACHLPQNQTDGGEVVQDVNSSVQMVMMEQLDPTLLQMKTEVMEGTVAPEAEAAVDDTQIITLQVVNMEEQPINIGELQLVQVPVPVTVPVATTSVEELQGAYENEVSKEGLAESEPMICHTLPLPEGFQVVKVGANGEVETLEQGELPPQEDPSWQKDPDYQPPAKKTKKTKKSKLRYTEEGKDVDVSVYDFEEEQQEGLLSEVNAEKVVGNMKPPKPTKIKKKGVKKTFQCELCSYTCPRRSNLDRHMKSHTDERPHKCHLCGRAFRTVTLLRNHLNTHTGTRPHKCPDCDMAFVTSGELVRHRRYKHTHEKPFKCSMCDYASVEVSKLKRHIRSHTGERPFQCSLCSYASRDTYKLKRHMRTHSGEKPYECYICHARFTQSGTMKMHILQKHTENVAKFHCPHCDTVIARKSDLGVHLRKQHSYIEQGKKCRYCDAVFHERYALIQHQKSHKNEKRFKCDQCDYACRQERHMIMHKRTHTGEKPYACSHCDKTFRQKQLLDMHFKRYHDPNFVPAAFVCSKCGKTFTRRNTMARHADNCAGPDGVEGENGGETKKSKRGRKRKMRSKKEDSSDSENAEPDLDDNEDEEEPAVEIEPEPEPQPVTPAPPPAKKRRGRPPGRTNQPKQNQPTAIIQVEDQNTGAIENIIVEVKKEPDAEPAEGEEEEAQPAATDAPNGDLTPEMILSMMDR
ACATAATG: 0.265
ACATATAA: 0.378
ATGTATAC: 0.289
TTGCAAAA: 0.252
ATGTTATA: 0.368
ATCGCCAC: 0.251
CTTATATA: 0.331
TAACAGAA: 0.294
CGTTTTTC: 0.257
ACATAAAC: 0.288
GTATAAAA: 0.3
ATTTAGCA: 0.257
AGAATATA: 0.281
TAAGTATA: 0.278
ACGTATGA: 0.297
GCGCCACC: 0.444
AATCAGCT: 0.325
ACACCTAC: 0.259
GTATATAA: 0.293
AATAAAAT: 0.259
AAAATGTT: 0.263
AATTATGT: 0.319
TACATGTA: 0.338
CATATAGG: 0.315

Study 2 — method: RNA Bind-n-Seq; molecule type: RNA; matrix: in vitro; tested at: 365 nM; baseline: no-protein control; reading: higher = stronger binding; quantity: RBNS enrichment (R)
Target: RNA binding protein fox-1 homolog 2, RRM domain, GST-SBP tag (RBFOX2, Homo sapiens, UniProt O43251-10, residues 100-194)
Setting: natural RNA segment, single round, ends assumed
Shared flanks, not repeated: GGGAGUUCUACAGUCCGACGAUC … UGGAAUUCUCGGGUGCCAA
Target sequence (chain): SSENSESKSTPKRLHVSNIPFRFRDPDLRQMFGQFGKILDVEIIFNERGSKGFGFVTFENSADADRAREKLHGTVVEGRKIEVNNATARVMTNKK
CAUGGAAAUGAUGGCACUGGAGGUGGAGGACCUUGCACGCAUACUCUUUGUGACCACAGGGUUGCAGGACGUUCUUGAAAGAUGUGUCACUAAAUGUUUGUUUUUGCUCA: 3.76
UAGUUUAUUUGGCUCAGUCCACAGCUGCGUUGGAGUGGUGACUUUGGUAGCCCUUGAGCUCUAAUUAAGAGAGAUCCAAACCACUCAGUACCCACUGGGCAGUGGGAAGG: 0.257
CUAUGAAAUGUCUUUUUUUCUUUUUGGUAUUUUACAUUAUUCACAUUUUAGAAUAACAAGAACACCAAGAAUUACCCCUAAAACAGAGACCCUGUAUUUAAUCUACUUUG: 0.409
AAGCAGUCUUUCAAAAUUCCUACUUGUAUAUUCAUCCAUUGUUGACAAGGACAAAAUCAGUUGUAUUUACAAAACUCUUAACUCGGUAUUUUUUUUUUAAACUGAAUCCU: 0.498
ACACUGCAAGCCCUUAAUCAGCCCUCUGUGACAUAGGUAGCAGCCCACGGAGAUCCUAAGCUGGCUGUCUUGUGUGCAGCCUGAGUGGGGUGGUGCAGGCCGGUAGUCUG: 0.228
UGCCUUCCUCACCUCUGGAGCAGCAGCUGGCAGGCACAUCUGCCAUUUGUCCUGGAAUUGUCACGGUGCCUUGGUGUCAGCAGCAGUAACUUGGUGCCAAGGCCAAGAGA: 0.275
CAAAAGAGCCUUUUUGUCUUUCUUUUUUAUUUUUUAAGUAUUGGAAUAAGUCUAAAGAAAAGAAAGUGCCUUAUUUUCCUUCAUGGUCAUUCAGUCAAGUGUCUCAUAAA: 0.631
UGACAAACCUAUCUCUUGGACUCAAGUUGGAUUGAUCAAGUUGAACCCUUUGAACCUGAUGUGACUUCAGCAAUAACCUUCACCUGACUCUGGAGCCUCCGUCUCUUCGA: 0.301
AUGAUGAUCACUGUGCUAUAAUGUACUGAAACCACCAUAUUACAGAAAUAUUUACUACAUAUUUUCCAUCUGUAGUUUCUCAGAAGGGCUAUGGAUUAGUUUGAACUGUC: 0.315
GCACAGUUGUUACGCAUACUACAUGGUAUGUUACAAUUAGGGUUUCCUUGCCUCUUUACAGUACACUAAUCCGCCUAAAGGUGGCUGUUUGAUAUUUACCGUGAUAAUUA: 0.343
AAUAUGAGCAUGCCCGCCUGGCUAGUAGGCAUCUGUAAGAGUGUCGCCAGGCCCGCGCCAGCUGAGGCCUCAGACUAGCCAGGCAAGAGCCGUCUGACCAGUUGGCUGGC: 0.686
CAGAACCAGAGGCUUGGUCCCACAGGCCACGGACCAAUGGCCUGCAGCCGUGACAACACUCCUGUCAUAUUGGAGUCCAAAACUUGAAUUCUGGGUUGAAUUUUUUAAAA: 0.281

Study 3 — method: protein binding microarray; molecule type: double-stranded DNA, one strand shown; matrix: in vitro; tested at: not given; baseline: not given; reading: higher = stronger binding; quantity: E-score
Target: Histone acetyltransferase KAT6A, winged helix 2, GST fusion (KAT6A, Homo sapiens, UniProt Q92794, residues 85-181)
Setting: 8-mer, flanks averaged, mean of 2 arrays, mostly near background
Construct (chain): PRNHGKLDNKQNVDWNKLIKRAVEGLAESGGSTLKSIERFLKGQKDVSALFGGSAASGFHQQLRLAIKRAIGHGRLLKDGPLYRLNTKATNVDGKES
GTCTACAC: -0.0441
AGTCGTGG: -0.00762
CTAACACA: 0.0579
ATGGGTTG: -0.124
AAAGTCAA: -0.0623
GCGAAAGC: 0.181
ATTCTGCA: 0.0782
AATATAAG: 0.185
CCACCGAC: 0.0103
CCAGTTGC: 0.0345
CGAAATAG: 0.0492
CGCGAAGC: 0.237
CTGATCGC: 0.0402
AATCAGCC: -0.0817
ACCCCAGG: -0.038
ATAAAAGG: -0.127
AAGAGGAA: 0.0258

Study 4 — method: aptamer microarray, sandwich; molecule type: DNA with 2'F-ANA; matrix: in vitro; tested at: 200 nM; added: Cy3 exosite-II aptamer, 400 nM; reading: higher = stronger binding; quantity: mean fluorescence intensity; sequence: GGTTGGTGTGGTTGG
Target: Prothrombin, mature alpha-thrombin (F2, Homo sapiens, UniProt P00734)
Setting: whole 15-mer aptamer, many near background
2'F-ANA at 1 2 3 4 5 6 7 8 10 12 13 15: 51.6 a.u.
2'F-ANA at 1 2 3 5 6 8 9 10 12 13 14: 53.7 a.u.
2'F-ANA at 3 4 7 8 9 13 14 15: 285 a.u.
2'F-ANA at 3 6 8 9: 939 a.u.
2'F-ANA at 2 3 5 7 8 10 13 14: 47.9 a.u.
2'F-ANA at 2 3 9 11 12: 988 a.u.
2'F-ANA at 1 3 4 5 7 10 11 13 14 15: 86.3 a.u.
2'F-ANA at 2 4 7 8 9 11 12 13: 374 a.u.
2'F-ANA at 1 2 5 7: 56.7 a.u.
2'F-ANA at 1 2 3 5 7 8 12 14 15: 46.3 a.u.
2'F-ANA at 1 2 3 6 7 8 10 12 14 15: 53.6 a.u.
2'F-ANA at 1 2 3 9 11 12 14: 81.8 a.u.
2'F-ANA at 1 3 7 8 9 10 12 15: 127 a.u.
2'F-ANA at 2 5 6 7 8 10 11 13: 47.8 a.u.
2'F-ANA at 4 10 13: 67 a.u.
2'F-ANA at 2 4 10 11 13 14: 60.9 a.u.
2'F-ANA at 3 9 10 13 14 15: 380 a.u.
2'F-ANA at 1 2 3 4 6 8 11 12 13 15: 278 a.u.
2'F-ANA at 2 3 5 6 9 12 14 15: 61.7 a.u.
2'F-ANA at 1 2 4 6 7 9 11 13 15: 71.7 a.u.
2'F-ANA at 1 2 3 4 5 6 8 12 14 15: 66.2 a.u.
2'F-ANA at 1 3 8 9 13 14: 97.8 a.u.
2'F-ANA at 3 10 11 12 14 15: 403 a.u.
2'F-ANA at 1 5 6 7 9 12: 118 a.u.

Study 5 — method: RNA Bind-n-Seq; molecule type: RNA; matrix: in vitro; tested at: not given; baseline: input RNA pool; reading: higher = stronger binding; quantity: bound/input enrichment
Target: RING finger protein unkempt homolog, zinc fingers 1-6, GST-SBP tag (UNK, Homo sapiens, UniProt Q9C0B0, residues 30-357)
Sequence of UniProt Q9C0B0 (30-357, looked up): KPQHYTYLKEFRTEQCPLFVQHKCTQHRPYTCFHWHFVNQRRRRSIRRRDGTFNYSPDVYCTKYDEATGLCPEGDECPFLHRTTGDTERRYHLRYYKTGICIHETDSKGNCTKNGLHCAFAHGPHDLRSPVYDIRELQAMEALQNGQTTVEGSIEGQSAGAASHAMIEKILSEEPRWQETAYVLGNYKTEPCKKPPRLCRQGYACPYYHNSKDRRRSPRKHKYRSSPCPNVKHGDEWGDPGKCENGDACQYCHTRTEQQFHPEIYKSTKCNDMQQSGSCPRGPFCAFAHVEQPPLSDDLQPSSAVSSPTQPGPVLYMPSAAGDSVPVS
Setting: RNA with constant flanks, human-mouse chimeric sites, ends assumed
Shared flanks, not repeated: GGGAGUUCUACAGUCCGACGAUC … CAACAGAGGAUUGAGCAUCA
GAGCGUCUCGCUCGAACUGGGAUCAUCGUGACCACUAGUGAGGCUGUCCUCCUACAGCUGGUGGCUGACAAAGACCAUCCAAAAUUCAAGGAAAUUCAGAACCUAAUUAAGGCGAGUGCC: 0.14 ratio
CUGGGUAUCAUCUCUCGAGCUGUUAAACACCUGUUCAAGAGUAUUGAUGAGAAAAAGACCUCAGCGAUUAAAAACGGGCUGCCCCCUCCUGAAUUCAAAGUGAAUGCCCAGUUCCUAGAG: 0.32 ratio
UGUGAACUGAAAGGUGUGAUCUAAAAACAAGAUGACUUUUCCUGGCACAUAUUCCAAAGCAAAGACUUUGUUGCCUGCUGCUUAUUGUCUAAUUUACAGGGAUAUUUAAUUUUGUAAGGU: 0.152 ratio
UCGGAUGCUGUGCUGGGUCACUUUUCAUAUCCAGAUCCUUCACAGUGGACAGAUGAAGAACUGGGAAUCCCUCCUGAUGAUGAAGACUGACACUGUAAACUCUCUGGACGAGUAGGAGCA: 0.435 ratio
UCUUAACUUAUUCAUUUAACUUAUUUUUAUAGCUAGAUAAAUAUUGUUAGUCUUAGACAAUAGCUCACAUUUUUUGAAAAGCAUGCUCUCCCUGUCCAUUGGGCCCAUAACAUGACCCAG: 90.5 ratio
AUUGUUGAAGCGAAUCCACUCCUAGAAGCAUUUGGAAAUGCAAAGACUGUUCGCAACAAUAAUAGCAGUCGAUUUGGAAAAUUUGUAGAAAUUCAUUUUAAUGAAAAGAGUUCGGUUGUU: 0.52 ratio
GACUUUGGAACUGGUCCUCGCAACGCAGCCUUCUAUAGCCCUCAUGGACAUAUAUUAGUGCUGGCUGGAUUUGGAAAUCUUCGAGGACAAAUGGAAGUAUGGGAUGUUAAAAACUACAAG: 0.439 ratio
ACAGUUAUAUUGUUGAGUUUCAUUUUCAUAUAUUCUUGUAGUGUCUGCUUGCCUGUGACUUCUGGUAAAAUAAAAUAUUAAAAUUACUUAGCAUGCUCAUGGUAUUUAACAUUUUCUAAA: 2.58 ratio
AACUUCGUACAUAGAUUUCCCUUUGUAGCUGUUUCAAUUGGCUUCCUUGUGAAUAAAGAGAUGGAGUUUGGAGUUGUGUACAGCUGUGUGGAAGAUAAGAUGUACACCGGCAGGAAAGGG: 1 ratio
AGAGCCCAGGAUGUUGAUGCUACAAAUCCAAAUUACGAAAUUAUGUGUAUGAUCAGAGACUUUAGAGGGAGCUUGGAUUACAGACCCUUAACAACAGCAGAUCCUAUUGAUGAACAUAGG: 0.44 ratio
UUUGUUUUUAUGCUAAGCACACGUGCUGGUGGUCUGGGCAUCAAUCUUGCAACUGCUGAUGUAGUCAUUUUGUAUGACUCAGAUUGGAAUCCGCAAGUUGAUCUUCAGGCUAUGGACCGU: 0.128 ratio

For quick reference, copied from above (study 1):
AGAATATA: 0.281
CTTATATA: 0.331
CATATAGG: 0.315
AATAAAAT: 0.259
ACATAAAC: 0.288
TTGCAAAA: 0.252
ACATATAA: 0.378
TAACAGAA: 0.294
